{"data": "Published values collected from several papers", "cell line": "MCF7", "note": "Lines come from different studies, so protocols differ. Several values in a cell are separate wells, animals, samples, runs or records. ± gives the spread as reported."}
{"SMILES": "CCCCn1cc(C(=O)O)c(=O)c2cc(F)c(Nc3ccccc3Cl)c(N)c21", "assay": "cell growth, SRB", "conditions": "72 h", "measurement": "IC50", "value": "23.4 ± 3.14 µg/mL"}
{"SMILES": "CC(C)C[C@@H]1NC(=O)[C@@H](Cc2c[nH]c3ccccc23)NC(=O)[C@H](CCCCN)NC(=O)[C@@H](Cc2c[nH]cn2)NC(=O)[C@H](CO)NC(=O)[C@@H](Cc2c[nH]cn2)NC(=O)[C@H](CCCCN)NC(=O)[C@@H](Cc2c[nH]c3ccccc23)NC1=O", "assay": "cytotoxicity", "measurement": "CC50", "value": "11 µM"}
{"SMILES": "CC=C(C)C(=O)OC1C2COC(=O)CCC(=O)CCCCCCC(CCCCC)OC3OC(C)C(OC(C)=O)C(O)C3OC(O2)C(O)C1OC(=O)C(C)=CC (stereo not shown)", "assay": "cytotoxicity", "measurement": "IC50", "value": "3.93 µM"}
{"SMILES": "COc1cc2c(cc1OC)C(=O)C(=Cc1ccc(N3CCN(C)CC3)cc1)C2", "assay": "cell viability, MTT", "conditions": "48 h", "measurement": "LD50", "value": "24.2 µM"}
{"SMILES": "N=C(N)NCCC[C@H](NC(=O)[C@@H]1CCCN1C(=O)[C@H](CC(N)=O)NC(=O)[C@H](Cc1ccccc1)NC(=O)[C@H](Cc1c[nH]cn1)NC(=O)[C@H](Cc1ccccc1)NC(=O)[C@H](Cc1ccccc1)NC(=O)Cc1ccc2ccccc2c1)C(=O)O", "test system": "cell lysate", "conditions": "200 µM, 1 h", "measurement": "remaining peptide", "value": "39%"}
{"SMILES": "CCCCn1cc(C(=O)O)c(=O)c2cc(F)c3c(nnn3-c3cccc(Cl)c3)c21", "assay": "cell growth or viability, SRB", "measurement": "IC50", "value": "54.2 µM"}
{"SMILES": "N=C(N)NCCC[C@H]1NC(=O)[C@H](CCCN)NC(=O)[C@@H](Cc2c[nH]cn2)NC(=O)[C@H](Cc2ccc(O)cc2)NC(=O)[C@@H](Cc2ccc(O)cc2)NC(=O)[C@H](Cc2ccccc2)NC(=O)[C@@H](Cc2c[nH]c3ccccc23)NC(=O)[C@H](CO)NC1=O", "assay": "cytotoxicity", "measurement": "CC50", "value": "18 µM"}
{"SMILES": "O=C(CCc1ccccc1)NOC(=O)OCc1ccccc1", "conditions": "25 µM", "measurement": "viability", "value": "> 98%"}
{"SMILES": "CCCCn1cc(C(=O)O)c(=O)c2cc(F)c(Nc3cccc(Cl)c3)c([N+](=O)[O-])c21", "assay": "cell growth or viability, SRB", "measurement": "IC50", "value": "2.6 µg/mL"}
{"SMILES": "CC=C(C)C(=O)OC1C(O)C2COC(=O)CCC(=O)CCCCCCC(CCCCC)OC3OC(C)C(OC(C)=O)C(O)C3OC(O2)C1O (stereo not shown)", "assay": "cytotoxicity", "measurement": "IC50", "value": "9.09 µM"}
{"SMILES": "CCCCn1cc(C(=O)O)c(=O)c2cc(F)c(Nc3cccc(Cl)c3)c(N)c21", "assay": "cell growth or viability, SRB", "measurement": "IC50", "value": "22 µM and 21.6 µM"}
{"SMILES": "CC=C(C)C(=O)OC1C(O)C2OC(COC(=O)CCCCCCCCCC(CCCCC)OC3OC(C)C(OC(C)=O)C(O)C3O2)C1OC(=O)C=Cc1ccccc1 (stereo not shown)", "assay": "cytotoxicity", "measurement": "IC50", "value": "0.033 µM"}
{"SMILES": "CC[C@H](C)[C@@H]1NC(=O)[C@H](CCCCN)NC(=O)[C@H](CCCCN)NC(=O)[C@H](Cc2ccc(O)cc2)NC(=O)[C@H](CC(C)C)NC(=O)[C@@H]2CCCN2C(=O)[C@H](C)NC(=O)CNC(=O)CNC(=O)[C@H](CO)NC(=O)CNC(=O)CNC(=O)[C@H](CO)NC(=O)[C@H]([C@@H](C)O)NC(=O)[C@H](CC(C)C)NC(=O)[C@H](CC(C)C)NC(=O)[C@H](C)NC(=O)[C@H](Cc2c[nH]c3ccccc23)NC(=O)[C@H](Cc2ccc(O)cc2)NC(=O)[C@H](Cc2c[nH]cn2)NC(=O)[C@H](CCC(=O)O)NC(=O)[C@H](Cc2ccccc2)NC(=O)[C@H]([C@@H](C)O)NC(=O)[C@H](CC(C)C)NC(=O)[C@@H]2CCCN2C(=O)CNC(=O)CNC(=O)CSC[C@@H](C(N)=O)NC(=O)[C@H](CC(C)C)NC(=O)[C@H](CCCCN)NC(=O)[C@H](CCCCN)NC(=O)[C@H]([C@@H](C)CC)NC1=O", "assay": "cell viability, resazurin", "conditions": "24 h", "measurement": "CC50", "value": "> 32 µM"}
{"note": "Excerpt of the above:"}
{"SMILES": "CC[C@H](C)[C@@H]1NC(=O)[C@H](CCCCN)NC(=O)[C@H](CCCCN)NC(=O)[C@H](Cc2ccc(O)cc2)NC(=O)[C@H](CC(C)C)NC(=O)[C@@H]2CCCN2C(=O)[C@H](C)NC(=O)CNC(=O)CNC(=O)[C@H](CO)NC(=O)CNC(=O)CNC(=O)[C@H](CO)NC(=O)[C@H]([C@@H](C)O)NC(=O)[C@H](CC(C)C)NC(=O)[C@H](CC(C)C)NC(=O)[C@H](C)NC(=O)[C@H](Cc2c[nH]c3ccccc23)NC(=O)[C@H](Cc2ccc(O)cc2)NC(=O)[C@H](Cc2c[nH]cn2)NC(=O)[C@H](CCC(=O)O)NC(=O)[C@H](Cc2ccccc2)NC(=O)[C@H]([C@@H](C)O)NC(=O)[C@H](CC(C)C)NC(=O)[C@@H]2CCCN2C(=O)CNC(=O)CNC(=O)CSC[C@@H](C(N)=O)NC(=O)[C@H](CC(C)C)NC(=O)[C@H](CCCCN)NC(=O)[C@H](CCCCN)NC(=O)[C@H]([C@@H](C)CC)NC1=O", "assay": "cell viability, resazurin", "conditions": "24 h", "measurement": "CC50", "value": "> 32 µM"}
